Results pooled from the literature.
Lines come from different studies, so protocols differ. ± marks the error that the study gave. ≈ marks a conversion by molar mass, not a printed value.

| Compound | organism | test | system | setting | scale | quantity | value |
| --- | --- | --- | --- | --- | --- | --- | --- |
| CC[C@H](C)[C@H](NC(=O)[C@H](CO)NC(=O)[C@H](CO)NC(=O)[C@H](Cc1ccccc1)NC(=O)CN)C(=O)N[C@@H](Cc1ccccc1)C(=O)N[C@@H](CCCNC(=N)N)C(=O)NCC(=O)N[C@H](C(=O)N[C@@H](C)C(=O)N[C@@H](CCCCN)C(N)=O)C(C)C | Escherichia coli |  | ATCC 8739 | with: 0.5 mM KCl |  | MBC | > 128 µM |
| CC[C@H](C)[C@H](NC(=O)[C@H](CCCCN)NC(=O)[C@H](CCCCN)NC(=O)[C@H](CC(C)C)NC(=O)[C@H](CCCCN)NC(=O)[C@H](CCC(=O)O)NC(=O)[C@H](CCCCN)NC(=O)[C@@H](NC(=O)[C@H](CCCCN)NC(=O)[C@H](CC(N)=O)NC(=O)[C@H](CCCNC(=N)N)NC(=O)[C@H](Cc1ccccc1)NC(=O)[C@H](CCCCN)NC(=O)[C@H](CCCNC(=N)N)NC(=O)[C@H](CC(C)C)NC(=O)[C@H](CCCNC(=N)N)NC(=O)[C@H](CCCCN)NC(=O)[C@H](CCCNC(=N)N)NC(=O)[C@H](CC(C)C)NC(=O)CN)[C@@H](C)CC)C(=O)NCC(=O)N[C@@H](CCC(N)=O)C(=O)N[C@@H](CCCCN)C(=O)N[C@H](C(=O)N[C@@H](CCC(N)=O)C(=O)NCC(=O)N[C@@H](Cc1ccccc1)C(=O)N[C@H](C(=O)N1CCC[C@H]1C(=O)N[C@@H](CCCCN)C(=O)N[C@@H](CC(C)C)C(=O)N[C@@H](C)C(=O)N1CCC[C@H]1C(=O)N[C@@H](CCCNC(=N)N)C(=O)N[C@H](C(=O)N[C@@H](CC(=O)O)C(=O)N[C@@H](Cc1ccc(O)cc1)C(=O)O)[C@@H](C)O)C(C)C)[C@@H](C)CC | Staphylococcus warneri | inhibition zone | ATCC 1.2824 | LB agar, overnight |  | lethal concentration | 1.38 µM |
| C=CCc1ccc(OCc2ccccc2)c(OC)c1 | Spodoptera frugiperda |  | larvae | 25 µg/mL | relative to: untreated control | antifeedant index | 19% |
| CC[C@H](C)[C@H](NC(=O)[C@@H]1CC(=O)N[C@@H](CO)C(=O)N[C@@H](CC(C)C)C(=O)NCC(=O)N[C@@H](CO)C(=O)N[C@@H](CO)C(=O)N2CCC[C@H]2C(=O)N[C@@H](Cc2ccc(O)cc2)C(=O)N[C@@H](CC(N)=O)C(=O)N1)C(=O)N[C@@H](CC(C)C)C(=O)NCC(=O)N[C@@H](Cc1ccc(O)cc1)C(=O)N1CCC[C@H]1C(=O)N[C@@H](C)C(=O)N[C@@H](CC(C)C)C(=O)N[C@H](C(=O)N[C@H](C(=O)N[C@H](C(=O)N[C@@H](Cc1ccc(O)cc1)C(=O)N1CCC[C@H]1C(=O)O)[C@@H](C)CC)C(C)C)[C@@H](C)CC | Gram-positive bacteria |  |  | concentration not given |  | antibacterial activity | active |
| COc1ccc(Br)cc1/C=N/NC(=O)Cn1ccc(=O)c2ccccc21 | Botrytis cinerea | microbial growth |  | 50 µg/mL |  | inhibition | 14.6% |
| C/C=C/c1ccc(OCc2ccccc2)c(OC)c1 | Spodoptera frugiperda |  | larvae | 500 µg/mL | relative to: untreated control | antifeedant index | 25.7% |
| CC(=O)O[C@@H]1C[C@@H](C)O[C@H]2O[C@@H]3C[C@@H]4CC[C@@H]5[C@H](CC[C@]6(C)[C@@H](C7=CC(=O)OC7)CC[C@]56O)[C@@]4(C)C[C@H]3O[C@]21O | Schistosoma mansoni |  | mouse, chronic infection | oral, 10 mg/kg single dose, total |  | worm number | 14 ± 2.8 |
| C=CCc1ccc(OCC=C(C)C)c(OC)c1 | Spodoptera frugiperda |  | larvae | 50 µg/mL | relative to: untreated control | antifeedant index | 24.9% |
| CC(=O)Nc1cccc(CNC(=O)c2cnc3ccccc3c2C(F)(F)F)c1 | Drosophila melanogaster |  | APP Alzheimer model adult flies | oral in food, 100 µM, dosed from embryogenesis |  | median survival | 30 days |
| C=C(C)[C@@H]1CC[C@]2(CO)CC[C@]3(C)[C@H](CC[C@@H]4[C@@]5(C)CCCNC(C)(C)[C@@H]5CC[C@]43C)[C@@H]12 | Human alphaherpesvirus 1 |  | HFF, E-377 |  | relative to: CC50 over EC50 | selectivity index | < 4 |
| CC[C@H](C)[C@H](NC(=O)[C@H](CCC(N)=O)NC(=O)CNC(=O)[C@H](C)NC(=O)[C@@H](NC(=O)[C@H](CC(N)=O)NC(=O)[C@H](CCCNC(=N)N)NC(=O)[C@H](CC(C)C)NC(=O)[C@H](C)NC(=O)[C@H](CCC(N)=O)NC(=O)[C@H](CCCCN)NC(=O)CNC(=O)[C@H](C)NC(=O)[C@H](CCCNC(=N)N)NC(=O)[C@H](C)NC(=O)[C@H](CCCCN)NC(=O)[C@H](C)NC(=O)CNC(=O)[C@H](CC(C)C)NC(=O)[C@H](CC(C)C)NC(=O)[C@H](CCCNC(=N)N)NC(=O)[C@H](CO)NC(=O)[C@H](CC(C)C)NC(=O)[C@H](CC(C)C)NC(=O)CN)[C@@H](C)O)C(=O)N[C@@H](CCCNC(=N)N)C(=O)N[C@@H](CCCNC(=N)N)C(=O)NCC(=O)N[C@@H](CC(C)C)C(=O)N[C@@H](CC(C)C)C(=O)NCC(=O)N[C@@H](C)C(=O)N[C@@H](CCCNC(=N)N)C(=O)N[C@@H](C)C(=O)N[C@@H](C)C(=O)N1CCC[C@H]1C(=O)O | Gram-negative bacteria | MIC |  | concentration not given |  | antibacterial activity | active |
| CC(C)C[C@@H]1NC(=O)[C@H](CCCCN)NC(=O)[C@H](C(C)C)NC(=O)[C@H](CCCCN)NC(=O)[C@@H]2CCCN2C(=O)[C@@H](Cc2ccc(O)cc2)NC(=O)[C@H](CCCCN)NC(=O)[C@H](CCCCN)NC(=O)[C@H](C(C)C)NC(=O)[C@@H]2CCCN2C(=O)[C@@H](Cc2ccc(O)cc2)NC1=O | Gram-negative bacteria |  |  | 24 h, 7 strains |  | MIC geometric mean | 210 µg/mL (≈ 156 µM) |
| CS(=O)(=O)c1ccc(/C=N/NC(=O)Cn2ccc(=O)c3ccccc32)cc1 | Bipolaris maydis | microbial growth |  | 50 µg/mL |  | inhibition | 8.9% |
| CC(=O)c1c(O)c(C)c(O)c2c1OC1=CC(=O)/C3=C(/C)N[C@H](C(=O)O)CC1=CC=C(O)C=C[C@@]2(C)C3=O | Candida tropicalis | broth microdilution | ATCC 750 fluconazole and amphotericin B resistant | 24 and 48 h |  | MIC99 | 1.54 µM (≈ 0.782 µg/mL) |
| CCCCCCCC(=O)N[C@@H](CCCCN)C(=O)N[C@H](C(=O)N[C@@H](C)C(=O)NCC(=O)N[C@@H](CCCCN)C(=O)N[C@H](C(=O)N[C@@H](C)C(=O)N[C@@H](CCCCN)C(=O)N[C@H](C(=O)N[C@@H](C)C(=O)NCC(=O)N[C@@H](CCCCN)C(=O)N[C@H](C(=O)N[C@@H](C)C(=O)N[C@@H](CCCCN)C(=O)N[C@H](C(=O)N[C@@H](C)C(=O)NCC(=O)N[C@@H](CCCCN)C(=O)N[C@H](C(=O)N[C@@H](C)C(N)=O)[C@@H](C)CC)[C@@H](C)CC)[C@@H](C)CC)[C@@H](C)CC)[C@@H](C)CC)[C@@H](C)CC | Staphylococcus aureus, Escherichia coli |  |  |  | relative to: S. aureus over E. coli | MIC ratio | 4 |
| CC[C@H](C)[C@H](NC(=O)[C@H](CCCCN)NC(=O)[C@H](CCCCN)NC(=O)[C@H](CC(C)C)NC(=O)[C@H](CCCCN)NC(=O)[C@H](CCC(=O)O)NC(=O)[C@H](CCCCN)NC(=O)[C@@H](NC(=O)[C@H](CCCCN)NC(=O)[C@H](CC(N)=O)NC(=O)[C@H](CCCNC(=N)N)NC(=O)[C@H](Cc1ccccc1)NC(=O)[C@H](CCCCN)NC(=O)[C@H](CCCNC(=N)N)NC(=O)[C@H](CC(C)C)NC(=O)[C@H](CCCNC(=N)N)NC(=O)[C@H](CCCCN)NC(=O)[C@H](CCCNC(=N)N)NC(=O)[C@H](CC(C)C)NC(=O)[C@@H](N)CC(C)C)[C@@H](C)CC)C(=O)NCC(=O)N[C@@H](CCC(N)=O)C(=O)N[C@@H](CCCCN)C(=O)N[C@H](C(=O)N[C@@H](CCC(N)=O)C(=O)NCC(=O)N[C@@H](Cc1ccccc1)C(=O)N[C@H](C(=O)N1CCC[C@H]1C(=O)N[C@@H](CCCCN)C(=O)N[C@@H](CC(C)C)C(=O)N[C@H](C(=O)N1CCC[C@H]1C(=O)N[C@@H](CCCNC(=N)N)C(=O)N[C@H](C(=O)N[C@@H](CCC(=O)O)C(=O)N[C@@H](CO)C(=O)O)[C@@H](C)O)C(C)C)C(C)C)[C@@H](C)CC | Streptococcus sanguinis | inhibition zone | ATCC 1.2497 | LB agar, overnight |  | lethal concentration | 2.81 µM |
| N=C(N)NCCC[C@H](NC(=O)[C@H](CCCNC(=N)N)NC(=O)[C@H](CCCNC(=N)N)NC(=O)[C@H](CCC(N)=O)NC(=O)[C@H](CCCNC(=N)N)NC(=O)[C@H](CCCNC(=N)N)NC(=O)[C@H](CCCCN)NC(=O)[C@H](CCCCN)NC(=O)[C@H](CCCNC(=N)N)NC(=O)CNC(=O)[C@H](Cc1ccc(O)cc1)NC(=O)CNC(=O)CNC(=O)[C@@H]1CCCCNC(=O)CCC(=O)N[C@@H](CCCNC(=N)N)C(=O)N[C@@H](CC(N)=O)C(=O)NCC(=O)N[C@@H](CCC(N)=O)C(=O)N[C@@H](CS)C(=O)N[C@@H](CCC(N)=O)C(=O)N[C@@H](CCCNC(=N)N)C(=O)N[C@@H](CCCCN)C(=O)N1)C(N)=O | Trypanosoma cruzi |  | H1, BALB/c mouse, Trypanosoma cruzi infection | intraperitoneal, 1.5 mg/kg/day, day 24 |  | survival | 80% |

A few entries again:
| Compound | organism | test | system | setting | scale | quantity | value |
| --- | --- | --- | --- | --- | --- | --- | --- |
| CC[C@H](C)[C@H](NC(=O)[C@@H]1CC(=O)N[C@@H](CO)C(=O)N[C@@H](CC(C)C)C(=O)NCC(=O)N[C@@H](CO)C(=O)N[C@@H](CO)C(=O)N2CCC[C@H]2C(=O)N[C@@H](Cc2ccc(O)cc2)C(=O)N[C@@H](CC(N)=O)C(=O)N1)C(=O)N[C@@H](CC(C)C)C(=O)NCC(=O)N[C@@H](Cc1ccc(O)cc1)C(=O)N1CCC[C@H]1C(=O)N[C@@H](C)C(=O)N[C@@H](CC(C)C)C(=O)N[C@H](C(=O)N[C@H](C(=O)N[C@H](C(=O)N[C@@H](Cc1ccc(O)cc1)C(=O)N1CCC[C@H]1C(=O)O)[C@@H](C)CC)C(C)C)[C@@H](C)CC | Gram-positive bacteria |  |  | concentration not given |  | antibacterial activity | active |
| C/C=C/c1ccc(OCc2ccccc2)c(OC)c1 | Spodoptera frugiperda |  | larvae | 500 µg/mL | relative to: untreated control | antifeedant index | 25.7% |
